Measured values of several laboratories.
Protocols differ between the studies behind these lines. Values joined by “and” are separate records of one study, mostly repeats; a detail may differ. ± marks the error that the study gave.

N[C@@H]1C[C@H]1c1ccccc1 — viability (OCI-Ly1; 0.5 µM, 120 h): 164%
O=C1CCP(=S)(c2ccccc2)CC1 — IL-6 secretion decrease (HCT-116; ELISA; concentration not given, compound at IC50; relative to: control): 93.4%
O=C(Nc1ccc2[nH]nc(-c3ccncc3)c2c1)[C@@H]1CCN(CC(=O)N2CCN(c3ccc(-c4ncccn4)cc3)CC2)C1 — PI-positive cells (HCT116; IncuCyte; concentration not given, 16 (unit not given)): 4.67 count and 3.75 count and 3.92 count
CN1CCN(C2(CNC3CCN(c4cccc(-c5cc6cc(F)ccc6[nH]5)c4)CC3)CCC2)CC1 — CC50 (M14): 6.91 µM
O=C1N(Cc2ccccc2Cl)c2ccccc2C12NN=C(c1ccccc1)S2 (stereo not drawn) — fold change (MDA-MB-468; gene expression array, item: MT1X mRNA; 10 µM, 12 h; relative to: untreated, down): 3.04
COc1c(C)c2c(c(O)c1C/C=C(\C)CCC(=O)O)C(=O)OC2 — IC50 (OVCAR-3; cell proliferation): 0.407 µM
COc1cc([C@@H]2c3cc4c(cc3C[C@H]3COC(=O)[C@@H]32)OCO4)cc(OC)c1OC — PCNA level (neuroblastoma M2 (+); western blot; IC50; relative to: untreated): decreased
C/C=C(/C)C(=O)O[C@H]1C(C)=C2[C@H]([C@@H]1OC(=O)CCCCCCC)[C@@](C)(OC(C)=O)C[C@H](OC(=O)CCC)[C@@]1(O)[C@H]2OC(=O)[C@@]1(C)O — log2 fold change (HEK293T; RNA-seq, item: CHAC1 mRNA; 10 µM, 6 h; relative to: vehicle): 4.39
Nc1ncnc2c1ncn2[C@@H]1O[C@@H]2COP(=O)(O)O[C@H]3[C@@H](O)[C@H](n4cnc5c(=O)[nH]cnc54)O[C@@H]3COP(=O)(O)O[C@H]2[C@H]1O — pathway fold enrichment (HFF-1; RNA sequencing, item: Diseases of metabolism; downregulated pathway; relative to: Zika virus alone): 3.73
COc1cc(C(=O)c2c[nH]c3cc(-c4cccc(O)c4)ccc23)cc(OC)c1OC — time to migration arrest (MDA-MB-231; 50 nM): 4 h
COc1ccc2c(c1)[nH]c1c(C)nccc12 — DNA methylation (DU-145; bisulfite pyrosequencing, item: RASSF1A promoter CpG site 32; 10 µM, 16 h): 97.5%
Oc1ccc(C(c2ccc(O)cc2)(C(F)(F)F)C(F)(F)F)cc1 — G1 phase cells (HepG2 spheroids; Hoechst flow cytometry; 1 µM, 24 h): 74.7 ± 3.23%
CN(C)C(=O)c1cc2cnc(Nc3ccc(C(=O)NCCCCCCOc4cccc5c4C(=O)N(C4CCC(=O)NC4=O)C5=O)cc3)nc2n1C1CCCC1 (stereo not drawn) — mRNA level (SK-N-BE(2) and IMR-32; RT-qPCR, item: MYCN; concentration not given, 24 h): no effect
Oc1cc(Cl)ccc1Oc1ccc(Cl)cc1Cl — point of departure (HepG2; high content imaging, item: nuclei count; 24 h, expected PoD): 18.7 µM
COc1cc(CCC[P+](c2ccccc2)(c2ccccc2)c2ccccc2)c(OC)c2c1OCO2.[I-] — LC50 (EKVX; SRB): > -4 log M
O=S(=O)(c1ccc(O)cc1)c1ccc(O)cc1 — G2 phase cells (HepG2 spheroids; Hoechst flow cytometry; 0.01 µM, 96 h): 17.1 ± 3.61%
CC(C)N1CCC(NC2CCN(c3cccc(-c4cc5cc(F)ccc5[nH]4)c3)CC2)CC1 — GI50 (SN12C): 1.61 µM
COc1c(CCC[P+](c2ccccc2)(c2ccccc2)c2ccccc2)cc2c(c1OC)OCO2.[I-] — GI50 (M14; SRB): -5.65 log M

Some of these lines once more:
CN(C)C(=O)c1cc2cnc(Nc3ccc(C(=O)NCCCCCCOc4cccc5c4C(=O)N(C4CCC(=O)NC4=O)C5=O)cc3)nc2n1C1CCCC1 (stereo not drawn) — mRNA level (SK-N-BE(2) and IMR-32; RT-qPCR, item: MYCN; concentration not given, 24 h): no effect
